Measured values from different studies.
Parts stem from different laboratories: compare values within a part only.
UniProt P11388, sequence (whole entry, looked up): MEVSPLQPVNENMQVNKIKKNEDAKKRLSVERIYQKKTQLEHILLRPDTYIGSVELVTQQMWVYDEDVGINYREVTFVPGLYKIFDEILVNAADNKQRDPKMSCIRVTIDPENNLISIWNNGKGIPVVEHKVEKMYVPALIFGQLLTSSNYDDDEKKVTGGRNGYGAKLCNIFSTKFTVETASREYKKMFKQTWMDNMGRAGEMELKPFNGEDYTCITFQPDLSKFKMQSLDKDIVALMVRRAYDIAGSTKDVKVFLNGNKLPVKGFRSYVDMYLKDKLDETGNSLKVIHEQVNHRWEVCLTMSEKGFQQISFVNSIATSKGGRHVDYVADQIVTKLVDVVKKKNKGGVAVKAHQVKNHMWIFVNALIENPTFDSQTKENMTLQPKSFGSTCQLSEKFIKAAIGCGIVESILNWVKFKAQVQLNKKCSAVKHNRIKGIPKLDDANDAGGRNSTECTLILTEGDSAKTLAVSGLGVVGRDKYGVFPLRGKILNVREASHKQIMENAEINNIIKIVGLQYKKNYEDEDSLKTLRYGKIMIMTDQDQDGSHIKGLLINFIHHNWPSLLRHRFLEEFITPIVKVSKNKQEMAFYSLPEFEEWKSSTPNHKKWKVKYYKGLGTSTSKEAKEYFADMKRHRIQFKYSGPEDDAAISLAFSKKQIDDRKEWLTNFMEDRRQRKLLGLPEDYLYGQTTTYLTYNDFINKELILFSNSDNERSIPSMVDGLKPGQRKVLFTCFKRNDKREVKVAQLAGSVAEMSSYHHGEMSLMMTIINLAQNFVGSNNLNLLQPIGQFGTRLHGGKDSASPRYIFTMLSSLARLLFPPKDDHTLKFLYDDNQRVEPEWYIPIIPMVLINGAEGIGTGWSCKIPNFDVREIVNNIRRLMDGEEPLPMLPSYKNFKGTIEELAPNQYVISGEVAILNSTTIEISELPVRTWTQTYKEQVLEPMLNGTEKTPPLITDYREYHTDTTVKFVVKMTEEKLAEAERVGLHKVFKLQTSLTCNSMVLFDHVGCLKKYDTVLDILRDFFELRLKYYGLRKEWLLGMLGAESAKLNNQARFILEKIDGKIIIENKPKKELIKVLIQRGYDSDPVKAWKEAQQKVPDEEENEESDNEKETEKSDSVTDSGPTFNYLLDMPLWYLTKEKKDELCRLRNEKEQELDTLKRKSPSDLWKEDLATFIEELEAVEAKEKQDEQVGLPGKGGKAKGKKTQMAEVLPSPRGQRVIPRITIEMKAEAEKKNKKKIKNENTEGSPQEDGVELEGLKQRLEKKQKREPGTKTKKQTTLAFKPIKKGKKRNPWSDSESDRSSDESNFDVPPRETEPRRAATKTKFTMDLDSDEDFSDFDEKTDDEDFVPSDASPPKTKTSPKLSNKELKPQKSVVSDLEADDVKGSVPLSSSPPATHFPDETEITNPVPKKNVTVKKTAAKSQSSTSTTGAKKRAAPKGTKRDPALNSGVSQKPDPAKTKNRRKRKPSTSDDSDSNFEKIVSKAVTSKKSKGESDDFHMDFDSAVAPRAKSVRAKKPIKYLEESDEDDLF

Sample 1 — mode: inhibitor
Target: Replicase polyprotein 1ab, nsp14 (rep, Severe acute respiratory syndrome coronavirus 2, UniProt P0DTD1)
Structure (SMILES) | IC50 [nM]
COc1ccccc1CNC(=O)c1cc(S(=O)(=O)N2CCN(C)CC2)c(C)n1C | > 6250
COc1ccccc1CNC(=O)c1cc(S(=O)(=O)N2CCC(C)CC2)c2n1CCC2 | 380
Cc1c(S(=O)(=O)N2CCn3nccc3C2)cc(C(=O)NCc2cccnc2N2CCCC2)n1C | 5
Cc1c(C(O)C2Cc3ccccc3C2)cc(C(=O)NCc2cccnc2N2CCCC2)n1C (stereo not drawn) | > 6250

Further values, each from its own experiment
SMILES | tested on | test | system | setting | scale | endpoint | result
CC1COc2ccccc2N1C(=O)C(Cl)Cl (stereo not drawn) | glutathione S-transferase | – | female rhesus monkey liver cytosol | 5 µM, 30 min, pH 7.4, together with: GSH | – | enantiomeric fraction | 0
N#CCC1CCN(c2nc(Nc3ccc(N4CCC(O)CC4)cc3)c3c(=O)[nH]ncc3n2)CC1 | – | vs placebo, Olink multiplex | human, serum | 40 mg, day 29, unit not given | reference: placebo | IL-18 level difference | -1.54
Fc1ccccc1Cc1nc(-c2nc(C(F)(F)F)n[nH]2)cn2ccnc12 | – | refers to: ALL | healthy humans | oral, 10 mg, fed, single dose | – | subjects with adverse events | 30.8%
COc1cc([C@@H]2c3cc4c(cc3[C@@H](O[C@@H]3O[C@@H]5CO[C@@H](C)O[C@H]5[C@H](O)[C@H]3O)[C@H]3COC(=O)[C@H]23)OCO4)cc(OC)c1O | DNA topoisomerase 2-alpha (TOP2A, Homo sapiens, UniProt P11388) | DNA cleavage | – | 125 µM, replicate 1 | – | linear DNA | 25.3%
COC(=O)Nc1c(N)nc(-c2nn(Cc3ccccc3F)c3ncc(F)cc23)nc1N | – | – | human, plasma | 10 mg, alone, geometric mean | – | Cmax | 269 ng/mL

Repeated from above (further values, each from its own experiment):
SMILES | tested on | test | system | setting | scale | endpoint | result
CC1COc2ccccc2N1C(=O)C(Cl)Cl (stereo not drawn) | glutathione S-transferase | – | female rhesus monkey liver cytosol | 5 µM, 30 min, pH 7.4, together with: GSH | – | enantiomeric fraction | 0
